Measured values from different studies.
Every numbered part comes from another study and shows a few of its results, in no order.

Set 1 — technique: protein-binding microarray; molecule type: double-stranded DNA, one strand shown; matrix: in vitro; concentration: 2200 nM top; notes: 60-bp whole probe; together with: salmon DNA 0.4 mg/ml; reference: random background probes; direction: higher = stronger binding; shared flanks, not repeated: GCCTAGCAC … GTCTTGATTCGCTTGACGCTGCTG
Target: Interferon regulatory factor 7, full length, phosphomimetic (IRF7, Homo sapiens, UniProt Q92985, residues 1-503, S471D/S472D/S475D/S476D/S477D/S483D/S484D/S487D)
Construct (chain): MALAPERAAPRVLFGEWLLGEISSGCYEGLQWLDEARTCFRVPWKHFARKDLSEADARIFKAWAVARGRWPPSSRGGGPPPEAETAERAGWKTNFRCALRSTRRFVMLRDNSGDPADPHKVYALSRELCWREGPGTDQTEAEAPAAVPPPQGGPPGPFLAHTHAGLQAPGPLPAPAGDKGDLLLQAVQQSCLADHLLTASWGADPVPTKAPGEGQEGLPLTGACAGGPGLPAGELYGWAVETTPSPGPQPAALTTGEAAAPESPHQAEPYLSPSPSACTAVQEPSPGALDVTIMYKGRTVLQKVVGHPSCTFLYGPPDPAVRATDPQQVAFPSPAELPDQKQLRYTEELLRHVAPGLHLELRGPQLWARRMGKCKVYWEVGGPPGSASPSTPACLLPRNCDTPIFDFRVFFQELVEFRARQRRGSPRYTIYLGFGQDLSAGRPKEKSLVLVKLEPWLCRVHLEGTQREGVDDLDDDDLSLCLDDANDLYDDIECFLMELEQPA
Oligonucleotide | fitted relative affinity
GACGGTATCCTTTTCATGACGTGCTAG | 1.36 z-score
TTCGGTTTCCTTCTCCTTTAGTGCTAG | 4.91 z-score
TTAGGTTTCCTTTCCCTTTAGTGCTAG | 5.11 z-score
GACGCACTGGACTTTCGGGACGTGCTA | 2.34 z-score
GACGAACTGGGGTCTGGAGACGTGCTA | -0.236 z-score
GACGGTATCGACTTCCGGGACGTGCTA | 0.777 z-score
GACGGTTGCGGTCTCGGGACGTGCTAG | 0.158 z-score

Set 2 — technique: RNA Bind-n-Seq; molecule type: RNA; matrix: in vitro; concentration: 200 nM; notes: whole 134-nt RNA, ends assumed; together with: 150 mM KCl; reference: input library; direction: higher = stronger binding
Target: Fragile X messenger ribonucleoprotein 1, C-terminal low-complexity region (Fmr1, Mus musculus, UniProt P35922)
Oligonucleotide | log2 enrichment
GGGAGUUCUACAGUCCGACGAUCCACAGACAACACGCACCCACACAGACACAGACGGAAGGGGUUGGGAUGGGGACAGGGUGCACAGCAGGGCGGGGUAGGACCCCAGCCCCUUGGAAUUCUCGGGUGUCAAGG | 1.41
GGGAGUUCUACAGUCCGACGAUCCCUGUGCUACACAUCGUAUGUACCGAAUCGGGAAAAAAGGGAAAAAAGGGGAAAAAAGGGAAAGUAUUAUGUUACGCCGUUCGGAUCUGCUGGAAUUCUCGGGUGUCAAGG | -0.601
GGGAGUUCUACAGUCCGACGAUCCAAGUCCUGUGCUACACAUCGUAUGUACCGAAUCGGGGCCCGGGGCCCGGCCCGGAAAGUAUUAUGUUACGCCGUUCGGAUCUGCACUUCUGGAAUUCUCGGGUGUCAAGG | -0.332
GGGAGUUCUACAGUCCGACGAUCCUCAAGUCCUGUGCUACACAUCGUAUGUACCGAAUCGGGUGGGGUGGGGUGGGAAAGUAUUAUGUUACGCCGUUCGGAUCUGCACUUCCAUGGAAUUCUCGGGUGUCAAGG | 1.03
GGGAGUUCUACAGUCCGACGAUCCACAGACAACACGCACCCACACAGACACAGAGCGAAGGGGUUGGGAUGGGGACAGGGUGCACAGCAGGGCGGGGUAGGACCCCAGCCCCUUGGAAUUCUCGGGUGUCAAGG | 1.34
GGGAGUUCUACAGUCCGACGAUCGCCACUGUUCACCAGUCCUACCCACACCAUGCCACACAGCUCCAUGCCCACCAGCCGCAGCCGGCUACCACGCCUACUGGAAGCCAGCCGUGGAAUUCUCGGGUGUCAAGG | -0.12

Set 3 — technique: universal PBM; molecule type: double-stranded DNA, one strand shown; matrix: in vitro; concentration: not given; direction: higher = stronger binding
Target: Sal-like protein 4, full length isoform B (SALL4, Homo sapiens, UniProt Q9UJQ4-2, residues 1-616)
Notes: 8-mer, flanks averaged, mean of replicates
Construct (chain): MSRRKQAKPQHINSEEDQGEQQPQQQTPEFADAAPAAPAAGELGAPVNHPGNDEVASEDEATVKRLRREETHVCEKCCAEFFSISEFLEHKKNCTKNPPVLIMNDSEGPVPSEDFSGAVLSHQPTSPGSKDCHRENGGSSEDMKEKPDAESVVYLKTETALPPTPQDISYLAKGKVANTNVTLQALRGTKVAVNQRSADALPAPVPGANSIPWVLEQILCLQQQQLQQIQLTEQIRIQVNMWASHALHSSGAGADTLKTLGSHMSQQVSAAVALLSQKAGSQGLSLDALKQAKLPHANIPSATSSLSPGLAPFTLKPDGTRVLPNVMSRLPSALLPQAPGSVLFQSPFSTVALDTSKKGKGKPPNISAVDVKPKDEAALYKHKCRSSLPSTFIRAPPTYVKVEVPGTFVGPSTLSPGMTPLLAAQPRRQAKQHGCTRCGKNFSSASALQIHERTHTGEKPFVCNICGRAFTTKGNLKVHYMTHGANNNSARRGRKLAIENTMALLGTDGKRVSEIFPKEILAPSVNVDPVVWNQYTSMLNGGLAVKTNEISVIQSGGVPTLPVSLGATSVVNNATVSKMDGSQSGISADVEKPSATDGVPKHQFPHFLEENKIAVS
Oligonucleotide | E-score
CGTTGTTA | 0.164
GGCACGCA | -0.246
TGGCGTAA | 0.121
GAGCCTGC | -0.259
GGGGCTCA | -0.279
CGTCACAG | -0.0638

Mixed results
Molecule | target | assay | system | conditions | how to read | endpoint | result
PhoQ, residues 284 288 289 292 302 303 TLMATV | PhoP, residues 12 14 15 18 19 NMSFL (Escherichia coli, UniProt P23836) | Sort-seq, refers to: YFP reporter | E. coli | PhoQ-PhoP variant library, together with: 10 µM Mg2+ | reference: high Mg2+ state, higher = stronger signaling | fold induction | 4.51

Excerpt of the above (set 3):
Oligonucleotide | E-score
GGCACGCA | -0.246
